Published values from different studies.
Each line is one published result; not all experiments were run side by side. ± gives the spread as reported. In brackets after ≈: the same amount, converted by molar mass.

Substance	organism	assay	test system	setting	MIC [µg/mL]
Cc1ccc(S(=O)(=O)N2C(=O)CSC2c2ccc(Cl)cc2)cc1 (centres unmarked)	Lacticaseibacillus casei	broth microdilution	NCIM 2651	–	16 (≈ 43.5 µM)
CCOC(=O)c1c(N)csc1-c1cn(-c2ccccc2)nc1-c1ccc(C)cc1	Candida albicans	broth microdilution	clinical urinary isolate	compound gamma-irradiated 20 kGy	0.125 ± 0.4 (≈ 0.31 µM)
CC1(C)S[C@@H]2[C@H](NC(=O)[C@H](N)c3ccccc3)C(=O)N2[C@H]1C(=O)O	Lacticaseibacillus casei	broth microdilution	ATCC 393, MRS medium	24 h, 37 °C	2.5 ± 0.5 (≈ 7.15 µM)
O=C(N[C@@H](Cn1ccnc1)c1ccc(Cl)cc1Cl)c1ccc(-c2nnc(-c3ccccc3)o2)cc1	Acanthamoeba castellanii	parasite growth, resazurin	–	96 h	8 (≈ 15.9 µM)
CC1(C)SC2C(NC(=O)C(NC(=O)C3=C(O)C(Cc4ccc([N+](=O)[O-])cc4)NC3=O)c3ccccc3)C(=O)N2C1C(=O)O (centres unmarked)	Escherichia coli	broth microdilution	BW25113, Mueller-Hinton broth	together with: 2,2'-bipyridyl 30 µg/mL	25 (≈ 41 µM)
Cc1ccc(S(=O)(=O)N2C(=O)CSC2c2cccc(O)c2)cc1 (centres unmarked)	Lacticaseibacillus casei	broth microdilution	NCIM 2651	–	32 (≈ 91.6 µM)
pneumocandin J	Candida albicans	broth microdilution, resazurin	ATCC 10231	24 h, 35 °C	1.6
LSTFFRLFN	Streptococcus mutans	broth microdilution	peptide, GS-5	24 h, 37 °C, planktonic, anaerobic	> 256
pneumocandin I	Candida albicans	broth microdilution, resazurin	ATCC 90028	24 h, 35 °C	0.1
C[C@@H](c1ncncc1F)[C@](O)(Cn1cncn1)c1ccc(F)cc1F	Acanthamoeba castellanii	parasite growth, resazurin	–	96 h	0.03 (≈ 0.0859 µM)
CC1(C)SC2C(NC(=O)C(NC(=O)C3=C(O)CN(c4ccccc4)C3=O)c3ccccc3)C(=O)N2C1C(=O)O (centres unmarked)	Escherichia coli	broth microdilution	BW25113, Mueller-Hinton broth	together with: 2,2'-bipyridyl 30 µg/mL	100 (≈ 182 µM)
O[C@@](Cn1cnnn1)(c1ccc(F)cc1F)C(F)(F)c1ccc(-c2ccc(OCC(F)(F)F)cc2)cn1	Acanthamoeba castellanii	parasite growth, resazurin	–	96 h	0.03 (≈ 0.0569 µM)
CC(C)(C)OCC1NC(=O)C(C(=O)NC(C(=O)NC2C(=O)N3C2SC(C)(C)C3C(=O)O)c2ccccc2)=C1O (centres unmarked)	Escherichia coli	broth microdilution	BW25113, Mueller-Hinton broth	together with: 2,2'-bipyridyl 30 µg/mL	25 (≈ 44.6 µM)
Cc1ccc(S(=O)(=O)N2C(=O)CSC2c2ccccc2F)cc1 (centres unmarked)	Lacticaseibacillus casei	broth microdilution	NCIM 2651	–	4 (≈ 11.4 µM)
CC1(C)SC2C(NC(=O)C(NC(=O)C3=C(O)C(Cc4ccc(O)cc4)NC3=O)c3ccccc3)C(=O)N2C1C(=O)O (centres unmarked)	Escherichia coli	broth microdilution	BW25113, Mueller-Hinton broth	–	200 (≈ 344 µM)
Cc1ccc(S(=O)(=O)N2C(=O)CSC2c2ccccc2)cc1 (centres unmarked)	Lacticaseibacillus casei	broth microdilution	NCIM 2651	–	64 (≈ 192 µM)
CC1(C)SC2C(NC(=O)C(NC(=O)C3=C(O)CNC3=O)c3ccccc3)C(=O)N2C1C(=O)O (centres unmarked)	Escherichia coli	broth microdilution	BW25113, Mueller-Hinton broth	together with: 2,2'-bipyridyl 30 µg/mL	50 (≈ 105 µM)
Cc1ccc(S(=O)(=O)N2C(=O)CSC2c2ccc(C(C)C)cc2)cc1 (centres unmarked)	Lacticaseibacillus casei	broth microdilution	NCIM 2651	–	> 256
CN1CC(O)=C(C(=O)NC(C(=O)NC2C(=O)N3C2SC(C)(C)C3C(=O)O)c2ccccc2)C1=O (centres unmarked)	Escherichia coli	broth microdilution	BW25113, Mueller-Hinton broth	–	100 (≈ 205 µM)
Cc1ccc(S(=O)(=O)N2C(=O)CSC2c2ccccc2C)cc1 (centres unmarked)	Lacticaseibacillus casei	broth microdilution	NCIM 2651	–	64 (≈ 184 µM)
